Published values of several laboratories.
Parts stem from different laboratories: compare values within a part only.

Set 1
Target: RNA binding protein fox-1 homolog 2, RRM domain, GST-SBP tag (RBFOX2, Homo sapiens, UniProt O43251-10, residues 100-194)
Method: RNA Bind-n-Seq
Molecule type: RNA
Sample: in vitro
Tested at: 365 nM
Setting: natural RNA segment, single round, ends assumed
Baseline: no-protein control
Direction: higher = stronger binding
All sequences stand within: GGGAGUUCUACAGUCCGACGAUC … UGGAAUUCUCGGGUGCCAA
Construct (chain): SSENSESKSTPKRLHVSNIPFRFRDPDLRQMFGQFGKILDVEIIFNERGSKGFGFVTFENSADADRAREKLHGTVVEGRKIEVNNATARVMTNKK
| Strand | RBNS enrichment (R) |
| --- | --- |
| UGAGGGUUGUGAUCAGAGGUCCCAUCUCUUUACAGUGUCACUUCAAUCUGUUUGUGUUUCUGAGCCUGGUUCCUCCAAGACACAGGAAUGAAGUGGGGCCACAGAUUUAG | 0.515 |
| GUUUACAGUGUCUGUUGGUGGCCAAGACCUUCUCUCUCCACCCCUCCUCCAUCCACCCUGAGGACCCUGGGGCUCAGUGGAGGCAGGGCCCUGCCCCCCUCCCUUCCGCU | 0.344 |
| AGGGAAUCUGUUUUCUAUUUACAAGUCUGACAUCUUAAUCCCCACUGCCAAAAUGCUCCGAAAUCUAAAACGUGUUGAGCACCAACAGGAUACCACAAGUAAAAACUUUA | 0.68 |
| CAGAAGGCAUCUGGCUCUGAGUUAUAAAUUACUUCCCUGGUCCUGACAGUCACCUGGGGUCCCCCCUCUCCCUGGUUCCACCUUUCUGAGGAGGAGCCUGGAGUCAGGGC | 0.147 |
| GCCUCCCUUGCAGGUUUGCCAAGUAUCUGCUUCCUGUGGAAGCAAGACCAAAAGGAAACCAACCGAGUGGGGGUUUGGAGGAGUCGGAAGUAGCAUCUCCAGGCAAGCUG | 0.276 |
| AGGAGGCGAACCCAAGUGUGUGUCUCCUCUGAAUGUCUCAGAACUCAGUUGUGAAGGAGCAGGAGGUUUAGACGAUGAAGAAAUUCUUGACUGUUUUUCAGUUGCUAUAU | 0.795 |
| UUACCUUGCAGUGGUGUUGACUCUUUUAUAGACUGUCUUUAGCAUUGUGCAAUUUAAGAAUAACUUAAGGAUCUUGGACUUUACAUAAAUCUUGAAUUGUAUAAACUCUA | 0.376 |
| CUAUUUGGAACAGUUCUUACACAUUUGCUGGGCCUGGCCUCUGAGAGGCCAUCUUCCACCCCCAGAAAGGUGCUAAUGGCACUGCAGAGGGCUCUCUAGGGGCCUCCCCG | 0.21 |

Set 2
Target: Interferon regulatory factor 5, full length, phosphomimetic (IRF5, Homo sapiens, UniProt Q13568-2, residues 1-514, S451D/S453D/S456D/S462D)
Method: protein-binding microarray
Molecule type: double-stranded DNA, one strand shown
Sample: in vitro
Tested at: 940 nM top
Setting: 60-bp whole probe
Together with: salmon DNA 0.4 mg/ml
Baseline: random background probes
Direction: higher = stronger binding
All sequences stand within: GCCTAGCAC … GTCTTGATTCGCTTGACGCTGCTG
| Strand | fitted relative affinity [z-score] |
| --- | --- |
| TTAGGACTGGGTATTGGTTAGTGCTAG | 0.11 |
| TTAGATATCGCGACTGGATTAGTGCTA | -0.273 |
| TTAGATTTCAGCCTCGATTAGTGCTAG | 0.038 |
| TCAGATATAAATGTAACACTGTGCTAG | 0.0868 |
| GACGATATCCTTTTCCTGACGTGCTAG | 0.369 |
| GACGGGTTCGGACTGGGGACGTGCTAG | -0.143 |
| GAAGGTTTCGGTATCGGGACGTGCTAG | 12.4 |
| TCATCTTCACATATAATACTGTGCTAG | 1.18 |
| TCACTTCCCAATTGTCTTACTGTGCTA | 1.19 |
| TTCTCTTTCACTGCTGCCCTGTGCTAG | 2.62 |
| GGCGGTTCCCTTTTCCTGACGTGCTAG | 0.782 |
| CTTTATGTCCTGTCTACATGGGTGCTA | 0.197 |
| CTCTCATTCCAATTCTTTTTGTGCTAG | 3.05 |
| GACGAACTGGGGTTTCGGGACGTGCTA | 1.98 |
| TCAGCTTGGTGTCTCTGACTGTGCTAG | -0.293 |
| TTTAGCAGACTGAGAGGAACGTGCTAG | -0.59 |
| GACGGTTTCCTTTCCCTAACGTGCTAG | 2.33 |

Set 3
Target: Centromere-binding protein 1, full length, His-tagged (CBF1, Saccharomyces cerevisiae, UniProt P17106, residues 1-351)
Sequence of UniProt P17106 (whole entry, looked up): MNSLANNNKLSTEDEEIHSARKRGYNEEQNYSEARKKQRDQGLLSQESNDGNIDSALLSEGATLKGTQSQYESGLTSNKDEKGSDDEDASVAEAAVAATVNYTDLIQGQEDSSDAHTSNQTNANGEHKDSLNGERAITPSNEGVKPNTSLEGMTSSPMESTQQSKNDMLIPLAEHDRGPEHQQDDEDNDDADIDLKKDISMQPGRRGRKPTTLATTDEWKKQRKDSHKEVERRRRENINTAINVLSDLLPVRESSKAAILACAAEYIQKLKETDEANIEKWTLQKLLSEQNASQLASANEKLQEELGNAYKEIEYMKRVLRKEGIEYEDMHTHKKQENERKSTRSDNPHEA
Method: competition protein-binding microarray
Molecule type: double-stranded DNA, one strand shown
Sample: in vitro
Tested at: 2 µM
Setting: whole 60-bp probe, lowest competitor level
Together with: Pho4 competitor, 0.05 µM
Direction: higher = stronger binding
All sequences stand within: … GTCTTGATTCGCTTGACGCTGCTG
| Strand | fluorescence intensity [a.u.] |
| --- | --- |
| GCCAAATCTGCCAGCTTCGTGATGGACATCAACAGA | 70.5 |
| TCCCGTACATCGATGTACGTGATGGGTTTTTCTCAT | 111 |
| GTCGACAACTACTTAGTCGTGATGGAACAGTATGGA | 79.7 |
| CGTTATATTTCCGACGTCGTGCGATAGTTTCTGCGC | 85.4 |
| TCGTTTAGAGTTATCATCGTGCCAGGACCCAGTGAT | 92.1 |
| TGACGATTGCTCTTTCCCGTGCTTTATCGAGTAACC | 94.7 |
| CTTCTGTAAATTTGGGGCGTGGGTGGACGCGCCCCG | 88.4 |
| GTCCAGTGCTCATCGCACGTGCATCTGGATTTTGTG | 1220 |
| CTTCTGTAAATTTGCTGAGTGGGTGGACGCGCCCCG | 95.3 |
| TGTGGGGGTAACCATCACGGCGTCGCACAACCCATA | 62.9 |
| TGCGCAACAACTTGGAGAGTGGGTGTATGTCTAGAA | 64.1 |
| TGCGCAACAACTTGCTAAGTGGGTGTATGTCTAGAA | 62.3 |
| TAAGATATACCTCACCACGTGAGATTATAGAAGCAA | 1510 |
| CTACCAATGTAGTCAAACGTGAAGCCGGGCTTGGAA | 71 |
| CATACCCAACCTTGTCGCGTGGGTGAAGATATTTGT | 98.1 |
| CTTTCCCGATCTTGGGGCGTGGGTGTAGCACATTTG | 65.8 |
| AAAGCGGTAATTTGTGAAGTGGGTGCAGATATCTAT | 79.6 |
| CGTTCATTATCGCCCAATGTGACGGACAATCTCGGC | 96.9 |
| TGAGTTCTCCTTCATTGCGTGATGGATCATCAAGTG | 76.4 |

Set 4
Target: Fragile X messenger ribonucleoprotein 1, C-terminal low-complexity region (Fmr1, Mus musculus, UniProt P35922)
Method: RNA Bind-n-Seq
Molecule type: RNA
Sample: in vitro
Tested at: 200 nM
Setting: whole 134-nt RNA, ends assumed
Together with: 150 mM LiCl
Baseline: input library
Direction: higher = stronger binding
All molecules: 7-deaza-guanosine replaces G
All sequences stand within: GGGAGUUCUACAGUCCGACGAUC … UGGAAUUCUCGGGUGUCAAGG
| Strand | log2 enrichment |
| --- | --- |
| UGGGAGGUGGACUUUGUUUAUUUUUUUAGCUCAUUUCCAGGGGUGGGAAUUUUUUUUUAAUAUGUGUCAUGAAUAAAGUUGUUUUUGAAA | -0.448 |
| UCCUGUGCUACACAUCGUAUGUACCGAAUCAAAUUUUUUUAAAUUUUUUUAAAUUUAAAAAAGUAUUAUGUUACGCCGUUCGGAUCUGCA | -2.87 |
| AAGUCCUGUGCUACACAUCGUAUGUACCGAAUCGGGGAAAAGGGAAAAGGGAAAAGGAAAGUAUUAUGUUACGCCGUUCGGAUCUGCACU | 0.0241 |
| CUCAAGUCCUGUGCUACACAUCGUAUGUACCGAAUCGGUUUGGAGGAAAAAGGAAAGUAUUAUGUUACGCCGUUCGGAUCUGCACUUCCA | -0.333 |
| ACCAUGCAGGUGGGCAUCUUUGGGAAGUGGGGCAGGGGGGGGAUAGGGAGGGGGGUAACACUUUGGGAACAGGUGGUCCCAGGUCGUUUC | 1.43 |
| UAACUUUAGAGGAGGAUCUGAUGGAUAUGGCAGUGGACGUGGAUUUGGGGAUGGCUAUAAUGGGUAUGGAGGAGGACCUGGAGGUCGCAA | 0.453 |
| UGUGCUACACAUCGUAUGUACCGAAUCGGGAAAAAAAGGGGAAAAAAAGGGGAAAAAAAGGGGAAAGUAUUAUGUUACGCCGUUCGGAUC | 1.03 |
| CCUGUGCUACACAUCGUAUGUACCGAAUCGGGUUUUUUUGGUUUUUUUGGGGUUUUUUUGGAAAGUAUUAUGUUACGCCGUUCGGAUCUG | 0.178 |

A few entries again (set 1):
| Strand | RBNS enrichment (R) |
| --- | --- |
| AGGGAAUCUGUUUUCUAUUUACAAGUCUGACAUCUUAAUCCCCACUGCCAAAAUGCUCCGAAAUCUAAAACGUGUUGAGCACCAACAGGAUACCACAAGUAAAAACUUUA | 0.68 |
| AGGAGGCGAACCCAAGUGUGUGUCUCCUCUGAAUGUCUCAGAACUCAGUUGUGAAGGAGCAGGAGGUUUAGACGAUGAAGAAAUUCUUGACUGUUUUUCAGUUGCUAUAU | 0.795 |
| UUACCUUGCAGUGGUGUUGACUCUUUUAUAGACUGUCUUUAGCAUUGUGCAAUUUAAGAAUAACUUAAGGAUCUUGGACUUUACAUAAAUCUUGAAUUGUAUAAACUCUA | 0.376 |
| UGAGGGUUGUGAUCAGAGGUCCCAUCUCUUUACAGUGUCACUUCAAUCUGUUUGUGUUUCUGAGCCUGGUUCCUCCAAGACACAGGAAUGAAGUGGGGCCACAGAUUUAG | 0.515 |
| GUUUACAGUGUCUGUUGGUGGCCAAGACCUUCUCUCUCCACCCCUCCUCCAUCCACCCUGAGGACCCUGGGGCUCAGUGGAGGCAGGGCCCUGCCCCCCUCCCUUCCGCU | 0.344 |
| CAGAAGGCAUCUGGCUCUGAGUUAUAAAUUACUUCCCUGGUCCUGACAGUCACCUGGGGUCCCCCCUCUCCCUGGUUCCACCUUUCUGAGGAGGAGCCUGGAGUCAGGGC | 0.147 |
| GCCUCCCUUGCAGGUUUGCCAAGUAUCUGCUUCCUGUGGAAGCAAGACCAAAAGGAAACCAACCGAGUGGGGGUUUGGAGGAGUCGGAAGUAGCAUCUCCAGGCAAGCUG | 0.276 |
| CUAUUUGGAACAGUUCUUACACAUUUGCUGGGCCUGGCCUCUGAGAGGCCAUCUUCCACCCCCAGAAAGGUGCUAAUGGCACUGCAGAGGGCUCUCUAGGGGCCUCCCCG | 0.21 |
